Measurements from different studies.
Protocols differ between the studies behind these lines. ± gives the spread as reported. ≈ marks a conversion by molar mass, not a printed value.

`CC[C@H](C)C(=O)N1CCC(NC(=O)Nc2ccc(OC(F)(F)F)c(F)c2)CC1` has a Tmax of 75 min (human, plasma; oral, 24 mg, single dose, healthy volunteers).
`CC[C@H](C)[C@H](NC(=O)[C@H](CC(=O)O)NC(=O)[C@H](CO)NC(=O)[C@H](CCC(N)=O)NC(=O)[C@H](C)NC(=O)[C@H](CC(=O)O)NC(=O)[C@H](CCC(=O)O)NC(=O)[C@H](Cc1c[nH]cn1)NC(=O)[C@H](Cc1ccc(O)cc1)NC(=O)[C@H](C)NC(=O)[C@H](CC(=O)O)NC(=O)[C@H](CCC(=O)O)NC(=O)[C@H](Cc1c[nH]cn1)NC(=O)[C@H](Cc1ccc(O)cc1)NC(=O)[C@H](C)NC(=O)[C@H](CC(=O)O)NC(=O)[C@H](CCC(=O)O)NC(=O)[C@H](Cc1c[nH]cn1)NC(=O)[C@H](Cc1ccc(O)cc1)NC(=O)[C@H](C)NC(=O)[C@H](CC(=O)O)NC(=O)[C@H](CCC(=O)O)NC(=O)[C@H](Cc1c[nH]cn1)NC(=O)[C@H](Cc1ccc(O)cc1)NC(=O)[C@H](C)NC(=O)[C@H](CC(=O)O)NC(=O)[C@H](CCC(=O)O)NC(=O)[C@H](Cc1c[nH]cn1)NC(=O)[C@@H](N)Cc1ccc(O)cc1)C(=O)N[C@H](C(=O)N[C@@H](C)C(=O)N[C@@H](Cc1c[nH]cn1)C(=O)N[C@@H](CC(C)C)C(=O)N[C@@H](CC(C)C)C(=O)O)C(C)C`: “BA share of white cells” 2.2 ± 0.5% (normal mouse, blood; dose not given).
The NOAEL of `OC1(C(F)(F)F)CCN(c2nc(Nc3ccnc(C(F)(F)F)c3)nc(-c3cccc(C(F)(F)F)n3)n2)C1` (stereo not shown) is reported as 50 mg/kg (respiratory system; Sprague-Dawley rat, both sexes; oral).
`O=C(O)CCCN1CCN2CCN(CC1)CC(=O)[O][Al]([18F])[O]C(=O)C2` has a blood uptake of 1.6 ± 0.3 %ID (Sprague-Dawley rat, normal, blood; iv, 60 min).
With `C=C1C(=O)O[C@@H]2C[C@H](C)[C@@H]3C[C@H](O[Si](c4ccccc4)(c4ccccc4)C(C)(C)C)[C@H](O)[C@@]3(C)C[C@H]12` the CC50 was 72 ± 1.5 µg/mL (≈ 143 µM) (propidium iodide flow cytometry; primary splenocytes, BALB/c mouse; 48 h, 10% fetal calf serum).
For `CC(C)C[C@H](NC(=O)[C@H](CCCCN)NC(=O)[C@H](CC(C)C)NC(=O)[C@H](CC(C)C)NC(=O)[C@H](CCCCN)NC(=O)[C@H](CCCCN)NC(=O)[C@H](CC(C)C)NC(=O)[C@H](CC(C)C)NC(=O)[C@H](CCCCN)NC(=O)[C@H](CC(C)C)NC(=O)[C@H](CC(C)C)NC(=O)[C@H](CCCCN)NC(=O)[C@H](CCCCN)NC(=O)[C@H](CC(C)C)NC(=O)[C@@H](N)CSSC[C@H](N)C(=O)N[C@@H](CC(C)C)C(=O)N[C@@H](Cc1c[nH]cn1)C(=O)N[C@@H](CCC(=O)O)C(=O)N[C@@H](CC(C)C)C(=O)N[C@@H](CC(C)C)C(=O)N[C@@H](CCC(=O)O)C(=O)N[C@@H](Cc1c[nH]cn1)C(=O)N[C@@H](CC(C)C)C(=O)N[C@@H](Cc1c[nH]cn1)C(=O)N[C@@H](CCC(=O)O)C(=O)N[C@@H](CC(C)C)C(=O)N[C@@H](CC(C)C)C(=O)N[C@@H](CCC(=O)O)C(=O)N[C@@H](Cc1c[nH]cn1)C(N)=O)C(N)=O`, the compound remaining was roughly 76.1% (chemical stability, HPLC; mouse, serum; 8 h).
`CC(C)[C@H](NC(=O)CNC(=O)[C@H](CCC(N)=O)NC(=O)[C@H](C)N)C(=O)O` — result for “drug-related adverse events”: 0% (human; intravenous infusion, 45 mg/kg/h, 2 h, relatedness Probably; reference: subjects).
For `CN[C@](C)(C[18F])C(=O)O`, the tracer uptake was 2 %ID/g (mouse, bone; 2 h, tumour-bearing).
`CC(=O)NCC(=O)N[C@@H](CO)C(=O)N[C@@H](CCCCNP(=O)(O)O)C(=O)NCC(=O)NCC(N)=O` — result for “first-order rate constant”: 2.47e-05 s⁻¹ (non-enzymatic hydrolysis; 100 µM, pH 7.8, no enzyme).
The intact compound of `CCCC[C@H](NC(=O)CN1CCC(NC(=O)CN2CCC(NC(=O)CN3CCN(CC(=O)O)CCN(CC(=O)O)CCN(CC(=O)O)CC3)CC2)CC1)C(=O)N[C@H]1CC(=O)NCCCC[C@@H](C(N)=O)NC(=O)[C@H](Cc2c[nH]c3ccccc23)NC(=O)[C@H](CCCNC(=N)N)NC(=O)[C@@H](Cc2ccccc2)NC(=O)[C@H](Cc2c[nH]cn2)NC1=O` [gallium-68 labelled] is reported as greater than 96% (radio-HPLC; mouse, plasma; intravenous, 8 to 12 MBq, 5 min post injection).
Under “tissue uptake ratio”, `CCNc1cc2[o+]c3cc(NCC)c(C)cc3c(-c3ccccc3C(=O)OCCOCC[18F])c2cc1C` is recorded as 4.6 (rat; 60 min; reference: heart over bone).
`CC(=O)NC(Cc1ccc(Br)c(Cl)c1)C(=O)N[C@@H](C)C(=O)N1CCC[C@H]1C(=O)N1CCC[C@H]1C(=O)N[C@@H](CCC(=O)O)C(=O)N[C@@H](Cc1c[nH]cn1)C(=O)N[C@@H](CO)C(=O)N[C@H](C(=O)N[C@@H](C)C(N)=O)[C@@H](C)OP(=O)(O)O` (stereo partly shown) gave a half-life of 36 min (metabolic stability; human, liver microsomes; 1 µM, pH 7.4).
With `CCN(CC)CCOc1ccc(-c2nnn(Cc3ccc(OC)cc3)c2N)cc1` the NOAEL was 25 mg/kg (Sprague-Dawley rat; oral, 4 weeks daily).
`CC[C@@H]1C[C@]1(NC(=O)[C@@H]1C[C@@]2(CN1C(=O)[C@@H](NC(=O)[C@@H](NC(=O)[C@@H]1CCCCN1C(C)C)C1CCCCC1)C(C)(C)C)C(C)(C)C21CCC1)C(=O)NS(=O)(=O)N1CCCC1` — result for “decrease in Cmax”: roughly 44% (human; oral, 100 mg, fed; reference: fasted).
`C=Cc1cc(O)cc2nc(-c3ccc(O)c([76Br])c3)oc12` has a tissue uptake of 0.18 ± 0.13 %ID/g (female C57BL/6 mouse, muscle; 1 h, high dose, together with: estradiol 20 µg blocking).
For `[2H]C([2H])([2H])C([2H])([2H])C([2H])([2H])OC(C(=O)OC1CCNCC1)(c1ccccc1)c1ccccc1`, the adverse events was 0% (item: wound; healthy Japanese male; oral, 10 mg, 16 days, multiple ascending dose).
The LDL level of `Cc1ccc(/C=C/C(=O)O)cc1-c1cc2c(cc1C)C(C)(C)CCC2(C)C` is reported as 7 ± 3.5 mg/dL (Sprague-Dawley rat, male, plasma; oral, 100 mg/kg, 6 h, sesame oil vehicle).
For `CN(C)C(CNC(=O)Nc1cc(C(F)(F)F)ccc1N1CCOCC1)c1ccncc1` (stereo not shown), “blood urea nitrogen” read 175 mg/dL (mouse, serum; intraperitoneal, 360 mg/kg single dose).
For `Cc1ccc(C(C)C)cc1.O=C(N=P(c1ccccc1)(c1ccccc1)c1ccccc1)c1ccccn1.[Cl-].[Cl-].[Ru+2]`, “body weight loss” read 15% (C57BL/6 mice; 5 mg/kg/day, 7 days).
`N=C(N)NCc1ccc(C(=O)NCCCC[C@H](NC(=O)N[C@@H](CCC(=O)O)C(=O)O)C(=O)O)cc1[131I]` gave a tissue uptake of 0.2 ± 0.11 %ID/g (SCID mouse, PC-3 xenografts, thyroid; 14 h).
For `O=C[C@H](C[C@@H]1CCNC1=O)NC(=O)[C@H](Cc1cccc(F)c1)NC(=O)c1cc2ccccc2[nH]1`, the clearance was 20.6 mL/min/kg (mouse; intravenous, 5 mg/kg).
With `Fc1ccc2nc3c4cccnc4c4ncccc4c3nc2c1.[Cl-].[Cl-].[Ru+2].c1ccncc1.c1ccncc1.c1ccncc1.c1ccncc1` the hemolysis was 0.65 ± 0.01% (red blood cells, rabbit; 20 µM, 2 h, 37 °C).
`COC(=O)C[C@](O)(CCCC(C)(C)OC(C)=O)C(=O)O[C@@H]1C(OC)=C[C@]23CCCN2CCc2cc4c(cc2[C@H]13)OCO4` — result for tissue concentration: “not detected” (CD1 mouse, liver; oral, 1 mg/kg, 8 h, below quantification limit 1.00 ng/mL).
For `C[C@@H]1CC[C@H]2[C@@H](C)CO[C@@H]3O[C@@]4(C)CC[C@@H]1[C@]32OO4`, the stability accuracy was 103% (item: compound; rat, plasma; 800 ng/mL spiked, 30 days, long-term storage at -80 °C).
`CS(C)(=O)=Nc1ccc(-c2ccc(-c3nc4cc(O[C@@H]5CO[C@H]6[C@@H]5OC[C@H]6O)[nH]c4cc3F)cc2)cc1` gave a bioavailability of 85% (female C57BL/6 mouse, plasma; oral, 10 mg/kg).

Repeated from above:
`COC(=O)C[C@](O)(CCCC(C)(C)OC(C)=O)C(=O)O[C@@H]1C(OC)=C[C@]23CCCN2CCc2cc4c(cc2[C@H]13)OCO4` — result for tissue concentration: “not detected” (CD1 mouse, liver; oral, 1 mg/kg, 8 h, below quantification limit 1.00 ng/mL).
`CC[C@H](C)[C@H](NC(=O)[C@H](CC(=O)O)NC(=O)[C@H](CO)NC(=O)[C@H](CCC(N)=O)NC(=O)[C@H](C)NC(=O)[C@H](CC(=O)O)NC(=O)[C@H](CCC(=O)O)NC(=O)[C@H](Cc1c[nH]cn1)NC(=O)[C@H](Cc1ccc(O)cc1)NC(=O)[C@H](C)NC(=O)[C@H](CC(=O)O)NC(=O)[C@H](CCC(=O)O)NC(=O)[C@H](Cc1c[nH]cn1)NC(=O)[C@H](Cc1ccc(O)cc1)NC(=O)[C@H](C)NC(=O)[C@H](CC(=O)O)NC(=O)[C@H](CCC(=O)O)NC(=O)[C@H](Cc1c[nH]cn1)NC(=O)[C@H](Cc1ccc(O)cc1)NC(=O)[C@H](C)NC(=O)[C@H](CC(=O)O)NC(=O)[C@H](CCC(=O)O)NC(=O)[C@H](Cc1c[nH]cn1)NC(=O)[C@H](Cc1ccc(O)cc1)NC(=O)[C@H](C)NC(=O)[C@H](CC(=O)O)NC(=O)[C@H](CCC(=O)O)NC(=O)[C@H](Cc1c[nH]cn1)NC(=O)[C@@H](N)Cc1ccc(O)cc1)C(=O)N[C@H](C(=O)N[C@@H](C)C(=O)N[C@@H](Cc1c[nH]cn1)C(=O)N[C@@H](CC(C)C)C(=O)N[C@@H](CC(C)C)C(=O)O)C(C)C`: “BA share of white cells” 2.2 ± 0.5% (normal mouse, blood; dose not given).
Under “tissue uptake ratio”, `CCNc1cc2[o+]c3cc(NCC)c(C)cc3c(-c3ccccc3C(=O)OCCOCC[18F])c2cc1C` is recorded as 4.6 (rat; 60 min; reference: heart over bone).
